Experimental data pooled from the literature.
Sequence of UniProt Q9NZD1 (whole entry, looked up): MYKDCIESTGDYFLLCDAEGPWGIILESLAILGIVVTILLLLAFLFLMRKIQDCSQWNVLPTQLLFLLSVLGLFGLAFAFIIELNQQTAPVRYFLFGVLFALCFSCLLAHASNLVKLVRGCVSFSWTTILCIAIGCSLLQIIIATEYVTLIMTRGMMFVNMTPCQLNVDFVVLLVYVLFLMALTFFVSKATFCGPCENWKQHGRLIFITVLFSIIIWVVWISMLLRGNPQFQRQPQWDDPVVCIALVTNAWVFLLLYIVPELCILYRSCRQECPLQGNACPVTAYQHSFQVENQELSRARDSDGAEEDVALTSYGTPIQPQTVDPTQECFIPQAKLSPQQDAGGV
Sequence of UniProt Q05655 (whole entry, looked up): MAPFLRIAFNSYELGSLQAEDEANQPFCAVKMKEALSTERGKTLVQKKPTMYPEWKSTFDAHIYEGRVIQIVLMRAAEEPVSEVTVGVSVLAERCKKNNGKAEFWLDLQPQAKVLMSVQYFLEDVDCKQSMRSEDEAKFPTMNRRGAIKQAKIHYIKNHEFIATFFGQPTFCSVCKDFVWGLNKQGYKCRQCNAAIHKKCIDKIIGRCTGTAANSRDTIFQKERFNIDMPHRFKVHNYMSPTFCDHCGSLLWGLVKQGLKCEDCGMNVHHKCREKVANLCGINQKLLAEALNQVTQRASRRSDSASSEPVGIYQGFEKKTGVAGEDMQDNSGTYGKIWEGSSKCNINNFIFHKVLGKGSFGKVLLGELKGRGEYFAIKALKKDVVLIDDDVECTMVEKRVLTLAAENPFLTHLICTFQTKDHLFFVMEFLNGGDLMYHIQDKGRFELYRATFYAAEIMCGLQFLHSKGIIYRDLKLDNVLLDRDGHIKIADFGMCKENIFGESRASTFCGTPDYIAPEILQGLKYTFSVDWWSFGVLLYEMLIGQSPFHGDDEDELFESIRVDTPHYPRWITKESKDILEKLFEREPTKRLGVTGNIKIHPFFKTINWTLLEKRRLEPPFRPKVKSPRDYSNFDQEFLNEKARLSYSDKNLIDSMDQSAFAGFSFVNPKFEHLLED
Sequence of UniProt Q5VWZ2 (whole entry, looked up): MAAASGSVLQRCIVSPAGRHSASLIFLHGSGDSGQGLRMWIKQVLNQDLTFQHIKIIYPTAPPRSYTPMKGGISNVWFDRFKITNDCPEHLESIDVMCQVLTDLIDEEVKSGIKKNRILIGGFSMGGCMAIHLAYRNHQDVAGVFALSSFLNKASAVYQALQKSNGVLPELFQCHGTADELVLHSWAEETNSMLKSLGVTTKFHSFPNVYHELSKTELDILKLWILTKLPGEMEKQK
Sequence of UniProt Q9UBE8 (whole entry, looked up): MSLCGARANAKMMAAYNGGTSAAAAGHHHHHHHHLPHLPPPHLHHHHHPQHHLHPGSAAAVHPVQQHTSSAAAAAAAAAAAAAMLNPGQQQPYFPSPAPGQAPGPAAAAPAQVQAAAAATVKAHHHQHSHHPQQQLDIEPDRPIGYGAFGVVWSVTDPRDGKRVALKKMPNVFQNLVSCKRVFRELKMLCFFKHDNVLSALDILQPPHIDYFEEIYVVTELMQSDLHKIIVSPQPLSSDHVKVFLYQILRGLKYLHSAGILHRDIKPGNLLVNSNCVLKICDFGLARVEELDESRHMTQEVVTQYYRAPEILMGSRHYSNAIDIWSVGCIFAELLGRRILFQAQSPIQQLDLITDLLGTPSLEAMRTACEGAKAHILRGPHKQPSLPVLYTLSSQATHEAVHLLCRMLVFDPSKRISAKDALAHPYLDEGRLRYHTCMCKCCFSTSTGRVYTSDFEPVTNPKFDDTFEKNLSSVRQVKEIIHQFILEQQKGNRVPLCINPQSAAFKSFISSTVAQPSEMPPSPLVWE
Sequence of UniProt P23975 (whole entry, looked up): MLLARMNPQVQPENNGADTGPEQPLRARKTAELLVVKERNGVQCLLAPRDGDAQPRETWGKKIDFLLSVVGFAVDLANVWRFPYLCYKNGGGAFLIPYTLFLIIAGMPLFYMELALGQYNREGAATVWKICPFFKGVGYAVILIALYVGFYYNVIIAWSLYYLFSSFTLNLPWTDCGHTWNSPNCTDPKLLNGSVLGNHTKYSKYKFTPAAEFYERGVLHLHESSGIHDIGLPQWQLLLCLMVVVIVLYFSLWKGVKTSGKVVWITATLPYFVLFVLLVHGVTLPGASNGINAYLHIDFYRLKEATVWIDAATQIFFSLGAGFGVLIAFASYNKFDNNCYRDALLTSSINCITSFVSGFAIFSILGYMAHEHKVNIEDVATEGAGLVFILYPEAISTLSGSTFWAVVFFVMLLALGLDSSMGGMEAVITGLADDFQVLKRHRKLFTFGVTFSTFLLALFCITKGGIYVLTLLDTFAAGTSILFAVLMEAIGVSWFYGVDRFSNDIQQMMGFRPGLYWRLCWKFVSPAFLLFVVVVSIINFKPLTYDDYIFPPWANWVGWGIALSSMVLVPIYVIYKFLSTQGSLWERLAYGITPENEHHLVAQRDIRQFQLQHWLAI
Sequence of UniProt O94804 (whole entry, looked up): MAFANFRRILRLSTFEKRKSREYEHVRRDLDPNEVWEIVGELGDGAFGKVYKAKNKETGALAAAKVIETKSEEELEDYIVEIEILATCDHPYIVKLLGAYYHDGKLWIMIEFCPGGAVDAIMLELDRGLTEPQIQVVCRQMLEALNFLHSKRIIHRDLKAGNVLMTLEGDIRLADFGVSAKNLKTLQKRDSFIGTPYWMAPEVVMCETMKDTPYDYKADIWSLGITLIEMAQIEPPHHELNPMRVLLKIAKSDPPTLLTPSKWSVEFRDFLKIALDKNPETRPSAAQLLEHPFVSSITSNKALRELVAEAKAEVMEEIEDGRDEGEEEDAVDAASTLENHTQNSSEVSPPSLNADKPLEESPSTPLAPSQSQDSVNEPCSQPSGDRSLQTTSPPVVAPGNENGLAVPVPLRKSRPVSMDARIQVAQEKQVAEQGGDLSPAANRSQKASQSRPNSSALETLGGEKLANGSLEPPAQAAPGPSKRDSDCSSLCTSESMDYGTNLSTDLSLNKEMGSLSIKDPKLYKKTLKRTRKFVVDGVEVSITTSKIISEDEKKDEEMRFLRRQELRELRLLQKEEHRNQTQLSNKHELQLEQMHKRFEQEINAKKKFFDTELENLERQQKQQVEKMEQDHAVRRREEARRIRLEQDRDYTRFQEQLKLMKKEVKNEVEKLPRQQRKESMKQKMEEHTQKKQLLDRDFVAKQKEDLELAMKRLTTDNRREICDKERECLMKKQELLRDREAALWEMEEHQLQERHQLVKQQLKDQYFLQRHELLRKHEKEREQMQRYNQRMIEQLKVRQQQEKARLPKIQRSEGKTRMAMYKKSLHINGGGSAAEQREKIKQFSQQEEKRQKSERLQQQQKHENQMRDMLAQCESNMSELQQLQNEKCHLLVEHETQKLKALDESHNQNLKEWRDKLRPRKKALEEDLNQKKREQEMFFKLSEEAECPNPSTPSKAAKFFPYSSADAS

SMILES	target or system	assay	test system	setting	scale	quantity	result
O=C(c1ccc(Cl)cc1)N1CCN2C(=O)N(OC(=O)N3CCOc4ccccc43)C(=O)C2C1 (stereo not shown)	LYPLAL1 (Homo sapiens, UniProt Q5VWZ2)	enzyme activity, inhibitor, MS-based ABPP	SW-620 conditioned medium	10 µM, 1 h, 37 °C	relative to: compound over DMSO, lower = stronger inhibition	median ratio	1.17
COc1ccc(N2C(=O)N(c3c(C)cccc3Cl)Cc3cnc(Nc4ccc(C5CCN(C)CC5)cc4OC)nc32)nc1	PRKCD (Homo sapiens, UniProt Q05655)	kinase activity, inhibitor	–	0.5 µM, kinase PKC-DELTA	–	inhibition	3.44%
Cn1cc(CNCC2CCN(c3ncc(C(=O)NO)cn3)CC2)c2ccccc21	human coronavirus OC43	virus-induced cell killing	MRC-5	maximum over 10 doses	–	maximum inhibition	0%
[2H]c1c([2H])c([C@]2([2H])CCCN2C(=O)C(C)(C)Oc2ccc3cn[nH]c3c2)c([2H])c([2H])c1C([2H])([2H])[2H]	STK10 (Homo sapiens, UniProt O94804)	KINOMEscan	–	1 µM	relative to: DMSO control	remaining binding	76%
CNC1(c2ccccc2Cl)CCCCC1=O (racemic)	SLC6A2 (Homo sapiens, UniProt P23975)	radioligand binding, antagonist, radioligand displacement	–	30 µM	–	inhibition	-18%
C[C@H]1CN(c2n[nH]c3nc(N[C@H]4CC[C@H](NS(=O)(=O)CCC(F)(F)F)CC4)ncc23)CCO1	NLK (Homo sapiens, UniProt Q9UBE8)	Kinobeads competition	HEK293, K562, placenta lysate	0.16 µM, unit not given	relative to: vehicle	remaining binding	0.75
OC[C@H]1O[C@@H](n2ccc3c(SCc4ccc(Cl)cc4Cl)ncnc32)[C@H](O)[C@@H]1O	Toxoplasma gondii	[3H]uracil incorporation	human fibroblasts, adenosine kinase deficient	5 µM	–	survival	100%
CNCCC(Oc1ccc(C(F)(F)F)cc1)c1ccccc1 (stereo not shown)	human coronavirus OC43	virus-induced cell killing	MRC-5	screen	–	maximum inhibition	26.5%
Oc1ccc2c3c1O[C@H]1[C@@H](O)CC[C@@]4(O)[C@@H](C2)N(CC2CCC2)CC[C@]314	G-protein coupled receptor family C group 5 member D (GPRC5D, Homo sapiens, UniProt Q9NZD1)	β-arrestin recruitment, TANGO luminescence, item: GPRC5D	–	concentration not given	relative to: basal luminescence	log2 fold change	0.484
OC[C@H]1O[C@@H](n2ccc3c(SCc4ccc(F)cc4F)ncnc32)[C@H](O)[C@@H]1O	Toxoplasma gondii	[3H]uracil incorporation	human fibroblasts, adenosine kinase deficient	25 µM	–	survival	100%

Repeated from above:
SMILES	target or system	assay	test system	setting	scale	quantity	result
OC[C@H]1O[C@@H](n2ccc3c(SCc4ccc(F)cc4F)ncnc32)[C@H](O)[C@@H]1O	Toxoplasma gondii	[3H]uracil incorporation	human fibroblasts, adenosine kinase deficient	25 µM	–	survival	100%
